{"data": "Measurements gathered from unrelated publications", "note": "Lines come from different studies, so protocols differ. Numbers after ± are the reported error.", "chain of UniProt P48066 (whole entry, looked up)": "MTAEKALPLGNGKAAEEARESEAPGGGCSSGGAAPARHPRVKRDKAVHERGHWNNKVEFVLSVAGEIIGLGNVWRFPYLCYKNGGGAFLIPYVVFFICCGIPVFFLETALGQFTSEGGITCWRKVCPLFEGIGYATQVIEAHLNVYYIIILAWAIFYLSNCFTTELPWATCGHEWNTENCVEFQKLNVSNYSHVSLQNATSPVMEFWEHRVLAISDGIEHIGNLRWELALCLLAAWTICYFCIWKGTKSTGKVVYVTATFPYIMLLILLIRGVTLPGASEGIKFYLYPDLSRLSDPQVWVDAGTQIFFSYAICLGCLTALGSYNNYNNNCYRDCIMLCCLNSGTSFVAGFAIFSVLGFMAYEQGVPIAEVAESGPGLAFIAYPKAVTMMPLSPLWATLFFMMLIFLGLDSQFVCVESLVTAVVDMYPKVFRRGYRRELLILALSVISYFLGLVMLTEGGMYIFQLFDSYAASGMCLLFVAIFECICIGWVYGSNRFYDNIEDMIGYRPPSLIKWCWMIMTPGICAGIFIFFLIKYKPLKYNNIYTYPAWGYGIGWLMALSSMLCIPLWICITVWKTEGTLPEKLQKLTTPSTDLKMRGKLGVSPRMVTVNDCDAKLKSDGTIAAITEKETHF", "chain of UniProt Q8NBS9 (whole entry, looked up)": "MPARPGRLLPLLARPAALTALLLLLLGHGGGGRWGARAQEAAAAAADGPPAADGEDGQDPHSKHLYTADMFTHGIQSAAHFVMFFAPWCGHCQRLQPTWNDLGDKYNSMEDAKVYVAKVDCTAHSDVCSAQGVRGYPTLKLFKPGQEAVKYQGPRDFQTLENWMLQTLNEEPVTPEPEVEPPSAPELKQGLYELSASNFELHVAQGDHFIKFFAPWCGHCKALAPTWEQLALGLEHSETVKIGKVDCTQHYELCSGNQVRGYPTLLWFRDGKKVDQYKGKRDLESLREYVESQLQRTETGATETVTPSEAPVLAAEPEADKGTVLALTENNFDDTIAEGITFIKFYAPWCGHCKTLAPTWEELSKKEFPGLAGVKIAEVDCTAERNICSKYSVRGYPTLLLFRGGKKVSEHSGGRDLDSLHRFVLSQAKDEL", "chain of UniProt P17931 (whole entry, looked up)": "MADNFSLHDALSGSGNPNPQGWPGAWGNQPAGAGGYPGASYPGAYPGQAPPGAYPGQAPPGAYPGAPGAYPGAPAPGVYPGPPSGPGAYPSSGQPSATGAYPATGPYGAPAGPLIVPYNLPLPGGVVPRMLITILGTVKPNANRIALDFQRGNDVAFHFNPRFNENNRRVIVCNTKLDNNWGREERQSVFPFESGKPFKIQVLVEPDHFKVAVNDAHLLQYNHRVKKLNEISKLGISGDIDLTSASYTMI", "chain of UniProt P62937 (whole entry, looked up)": "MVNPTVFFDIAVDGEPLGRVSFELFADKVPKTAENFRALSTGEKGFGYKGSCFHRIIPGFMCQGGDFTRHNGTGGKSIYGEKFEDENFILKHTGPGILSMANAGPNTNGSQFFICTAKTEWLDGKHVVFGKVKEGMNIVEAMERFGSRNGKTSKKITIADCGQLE", "chain of UniProt P97689 (whole entry, looked up)": "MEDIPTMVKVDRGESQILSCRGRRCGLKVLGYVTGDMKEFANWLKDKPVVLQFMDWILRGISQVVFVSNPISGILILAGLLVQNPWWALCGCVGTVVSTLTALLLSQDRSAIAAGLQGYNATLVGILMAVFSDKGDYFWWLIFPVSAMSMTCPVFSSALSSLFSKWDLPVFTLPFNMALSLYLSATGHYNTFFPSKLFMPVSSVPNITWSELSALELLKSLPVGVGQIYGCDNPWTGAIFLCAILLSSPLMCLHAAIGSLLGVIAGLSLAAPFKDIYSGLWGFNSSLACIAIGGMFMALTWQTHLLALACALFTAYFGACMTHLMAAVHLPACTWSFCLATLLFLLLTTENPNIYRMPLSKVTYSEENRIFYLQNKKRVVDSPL", "chain of UniProt P35869 (whole entry, looked up)": "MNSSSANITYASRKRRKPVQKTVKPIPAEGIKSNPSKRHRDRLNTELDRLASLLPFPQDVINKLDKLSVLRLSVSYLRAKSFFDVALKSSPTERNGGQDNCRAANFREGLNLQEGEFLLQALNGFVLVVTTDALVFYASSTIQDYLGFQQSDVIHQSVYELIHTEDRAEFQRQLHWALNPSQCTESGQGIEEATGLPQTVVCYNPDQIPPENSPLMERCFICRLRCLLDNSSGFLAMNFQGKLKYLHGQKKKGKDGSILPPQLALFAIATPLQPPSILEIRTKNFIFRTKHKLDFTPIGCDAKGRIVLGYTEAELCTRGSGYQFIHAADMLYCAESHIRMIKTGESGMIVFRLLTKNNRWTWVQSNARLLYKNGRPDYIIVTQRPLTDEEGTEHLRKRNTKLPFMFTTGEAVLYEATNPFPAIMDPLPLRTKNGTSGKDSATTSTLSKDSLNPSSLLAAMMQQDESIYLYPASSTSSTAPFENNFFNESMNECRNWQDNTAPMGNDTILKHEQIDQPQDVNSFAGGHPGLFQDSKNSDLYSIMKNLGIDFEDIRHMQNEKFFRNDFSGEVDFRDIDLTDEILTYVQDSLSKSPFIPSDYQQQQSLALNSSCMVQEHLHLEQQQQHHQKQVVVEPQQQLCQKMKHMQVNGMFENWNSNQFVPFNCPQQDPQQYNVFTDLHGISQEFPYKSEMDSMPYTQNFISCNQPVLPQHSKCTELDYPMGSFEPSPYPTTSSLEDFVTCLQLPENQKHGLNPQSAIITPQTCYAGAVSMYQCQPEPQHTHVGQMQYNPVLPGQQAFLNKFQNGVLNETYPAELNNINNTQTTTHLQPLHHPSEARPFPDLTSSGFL", "chain of UniProt O49686 (whole entry, looked up)": "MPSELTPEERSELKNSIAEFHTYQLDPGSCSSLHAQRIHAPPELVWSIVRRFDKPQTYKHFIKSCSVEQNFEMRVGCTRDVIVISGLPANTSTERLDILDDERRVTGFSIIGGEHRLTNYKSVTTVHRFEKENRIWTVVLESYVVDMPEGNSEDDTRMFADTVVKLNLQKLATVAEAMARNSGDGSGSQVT", "chain of UniProt P10275 (whole entry, looked up)": "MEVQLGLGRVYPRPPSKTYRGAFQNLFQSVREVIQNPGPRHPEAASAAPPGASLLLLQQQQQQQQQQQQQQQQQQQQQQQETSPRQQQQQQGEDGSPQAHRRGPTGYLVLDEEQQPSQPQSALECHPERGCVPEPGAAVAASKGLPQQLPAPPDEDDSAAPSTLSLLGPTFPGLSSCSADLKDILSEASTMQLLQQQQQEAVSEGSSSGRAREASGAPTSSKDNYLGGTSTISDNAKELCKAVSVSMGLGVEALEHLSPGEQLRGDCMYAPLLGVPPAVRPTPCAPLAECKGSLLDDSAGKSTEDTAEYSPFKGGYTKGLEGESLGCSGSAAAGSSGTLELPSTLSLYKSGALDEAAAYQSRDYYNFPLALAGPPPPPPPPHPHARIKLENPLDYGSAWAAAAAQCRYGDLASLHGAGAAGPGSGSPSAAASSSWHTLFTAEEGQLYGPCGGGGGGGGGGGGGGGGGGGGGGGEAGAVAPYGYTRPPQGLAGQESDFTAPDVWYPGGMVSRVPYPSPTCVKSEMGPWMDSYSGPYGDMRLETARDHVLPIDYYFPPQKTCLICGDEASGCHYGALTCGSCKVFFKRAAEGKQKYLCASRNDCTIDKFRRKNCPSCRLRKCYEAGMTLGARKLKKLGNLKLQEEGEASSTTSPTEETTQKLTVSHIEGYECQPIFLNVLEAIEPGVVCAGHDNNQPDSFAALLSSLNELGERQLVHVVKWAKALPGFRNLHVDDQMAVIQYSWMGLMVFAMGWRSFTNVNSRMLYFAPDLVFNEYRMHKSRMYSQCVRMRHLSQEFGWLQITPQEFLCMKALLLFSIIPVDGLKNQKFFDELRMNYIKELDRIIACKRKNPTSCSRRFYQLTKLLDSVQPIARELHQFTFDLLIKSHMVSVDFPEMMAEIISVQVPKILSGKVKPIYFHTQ", "chain of UniProt P43220 (whole entry, looked up)": "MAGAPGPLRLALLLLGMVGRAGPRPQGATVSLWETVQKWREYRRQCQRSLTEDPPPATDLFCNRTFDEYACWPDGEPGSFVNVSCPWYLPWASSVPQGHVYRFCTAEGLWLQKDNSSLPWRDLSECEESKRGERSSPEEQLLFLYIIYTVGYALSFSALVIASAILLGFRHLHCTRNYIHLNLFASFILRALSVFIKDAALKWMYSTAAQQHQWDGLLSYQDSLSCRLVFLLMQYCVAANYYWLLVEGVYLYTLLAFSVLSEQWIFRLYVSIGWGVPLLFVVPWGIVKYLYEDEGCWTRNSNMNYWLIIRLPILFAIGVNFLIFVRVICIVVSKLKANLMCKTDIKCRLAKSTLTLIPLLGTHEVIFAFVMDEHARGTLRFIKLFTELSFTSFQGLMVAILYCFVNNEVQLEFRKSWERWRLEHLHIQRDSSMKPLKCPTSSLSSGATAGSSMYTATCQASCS"}
{"Structure (SMILES)": "CCCN1C(=O)CCc2cc(NS(=O)(=O)Cc3ccc(C)cc3)ccc21", "target": "Abscisic acid receptor PYR1, with HAB1 (PYR1, Arabidopsis thaliana, UniProt O49686)", "test": "PYR1-HAB1 interaction, agonist, AlphaScreen", "how to read": "relative to: ABA", "measurement": "potency relative to ABA", "result": "8.7 fold"}
{"Structure (SMILES)": "COc1ccc(C(C=CCN2CCCC2C(O)C(=O)O)(c2ccc(OC)cc2)c2ccc(OC)cc2)cc1 (stereo not drawn)", "target": "SLC6A11 (Homo sapiens, UniProt P48066)", "test": "GABA uptake", "system": "HEK293T", "setting": "300 µM, no preincubation", "measurement": "maximal inhibition", "result": "25%"}
{"Structure (SMILES)": "N#Cc1cccc(/C=C/C(=O)c2ccc(O)cc2)c1", "target": "TXNDC5 (Homo sapiens, UniProt Q8NBS9)", "test": "enzyme activity, PDI reductase", "setting": "40 µM, protein 1 µM", "measurement": "activity class", "result": "inactive"}
{"Structure (SMILES)": "CCOC(=O)c1cc2c(N)c(C(=O)OC)sc2nc1C", "target": "Urea transporter 1 (Slc14a1, Rattus norvegicus, UniProt P97689)", "test": "urea permeability, osmotic lysis", "system": "rat erythrocytes", "measurement": "maximal inhibition", "result": "> 80%"}
{"Structure (SMILES)": "COc1c(F)c(F)c(C(=O)N[C@H]2[C@@H](O)[C@@H](CO)O[C@@H](S[C@@H]3O[C@H](CO)[C@H](O)[C@H](NC(=O)c4c(F)c(F)c(OC)c(F)c4F)[C@H]3O)[C@@H]2O)c(F)c1F", "target": "Galectin-3 (LGALS3, Homo sapiens, UniProt P17931)", "test": "ITC", "setting": "concentration not given, Kd fixed from FP", "measurement": "binding stoichiometry", "result": 0.89}
{"Structure (SMILES)": "COc1ccc(/C=C/C(=O)NC[C@H]2O[C@H](OC)[C@@H](O)[C@@H](O)[C@@H]2O)cc1OC", "target": "lecB (Pseudomonas aeruginosa, UniProt Q9HYN5)", "test": "binding, ITC", "setting": "25 °C", "measurement": "ΔG", "result": "-6.81 ± 0.16 kcal/mol"}
{"Structure (SMILES)": "CC(=O)OC1OC(OC(C)=O)C2CC(O)(C3(C)CCCC(C)(C)C3)CCC12 (stereo not drawn)", "target": "PPIA (Homo sapiens, UniProt P62937)", "test": "surface plasmon resonance", "setting": "concentration not given", "measurement": "binding", "result": "inactive"}
{"Structure (SMILES)": "Cn1c(=O)c2[nH]c(SCCc3ccccc3)nc2n(C)c1=O", "target": "Androgen receptor (AR, Homo sapiens, UniProt P10275)", "test": "reporter gene, antagonist, PSA-luciferase", "system": "HeLa-A6", "setting": "10 µM, 24 h, added: 5 nM dihydrotestosterone", "how to read": "relative to: maximal activity", "measurement": "remaining activity", "result": "101%"}
{"Structure (SMILES)": "CCC(=O)N(C)c1ccc(Cl)c(Cl)c1", "target": "AHR (Homo sapiens, UniProt P35869)", "test": "reporter gene, agonist", "setting": "10 µM", "how to read": "relative to: vehicle", "measurement": "fold activation", "result": "4.94 fold"}
{"Structure (SMILES)": "CC(C)C[C@H](NC(=O)CN)C(=O)N[C@@H](CO)C(=O)N[C@@H](Cc1ccccc1)C(=O)N[C@@H](C)C(=O)N[C@@H](Cc1ccccc1)C(=O)N1CCC[C@H]1C(=O)N[C@@H](C)C(=O)N[C@@H](CCCCN)C(=O)N[C@@H](CC(=O)O)C(=O)N[C@@H](C)C(=O)N[C@@H](CCC(=O)O)C(=O)N[C@@H](CC(N)=O)C(=O)N[C@@H](C)C(=O)N[C@@H](CO)C(=O)N[C@@H](CO)C(=O)N1CCC[C@H]1C(=O)N[C@H](C(=O)O)C(C)C", "target": "Peptide cyclase 1 (Gypsophila vaccaria, UniProt R4P353, S562A)", "test": "ITC", "setting": "concentration not given, pH 8.0, 25 °C", "measurement": "binding stoichiometry", "result": 1}
{"Structure (SMILES)": "COc1ccc(-c2cc(C(F)(F)F)nc(SCC(=O)N(C)c3ccccc3)n2)cc1", "target": "GLP1R (Homo sapiens, UniProt P43220)", "test": "cAMP accumulation, positive allosteric modulator", "system": "HEK-293T overexpressing GLP1R", "setting": "added: EC20 GLP-1", "measurement": "Emax", "result": "28 ± 4.3%"}
{"Structure (SMILES)": "CC(C)=CCC/C(C)=C/CC/C(C)=C/Cc1c(O)cc(CO)c(C=O)c1O", "target": "StaI from Stachybotrys chartarum", "test": "substrate", "setting": "30 min, pH 7.0, 45 °C", "measurement": "Km", "result": "817 µM"}
{"note": "A few entries again:"}
{"Structure (SMILES)": "COc1ccc(-c2cc(C(F)(F)F)nc(SCC(=O)N(C)c3ccccc3)n2)cc1", "target": "GLP1R (Homo sapiens, UniProt P43220)", "test": "cAMP accumulation, positive allosteric modulator", "system": "HEK-293T overexpressing GLP1R", "setting": "added: EC20 GLP-1", "measurement": "Emax", "result": "28 ± 4.3%"}
